Measurements gathered from unrelated publications.
Compare with care: the assays were run in different laboratories. Several values in a cell are separate wells, animals, samples, runs or records. ± marks the error that the study gave.

| Structure (SMILES) | cell line | test | setting | how to read | measurement | result |
| --- | --- | --- | --- | --- | --- | --- |
| CNS(=O)(=O)Nc1nccc(Cc2c(C)c3ccc(Oc4ncccc4F)cc3oc2=O)c1F | SNU-213 | cell viability, CellTiter-Glo | 7 days | – | IC50 | 164 nM |
| CC(=O)N(C)Cc1cccc(-c2cc3c(c(C(F)(F)F)c2)CCCC3N(C)C(=O)CCOCCOCCC(=O)N(C)C2CCCc3c2cc(-c2cccc(CN(C)C(C)=O)c2)cc3C(F)(F)F)c1 (stereo not shown) | CHO wild type | CHOP::GFP reporter, activator, flow cytometry | – | – | EC50 | 15 µM |
| CC[C@H](CO)Nc1nc(NCc2ccc(-c3ccccn3)cc2)c2ncn(C(C)C)c2n1 | MOLT-4 | TMT mass spectrometry proteomics, measured: CCNK protein | 1 µM, 1 h | baseline: DMSO | log2 fold change | -1.34 |
| Cn1ncc2cc(-c3cncc(Cl)c3N3CCC4(CCNC4=O)CC3)ccc21 | LS174T | gene expression, microarray, measured: GADD45G mRNA | concentration not given, 24 h | baseline: untreated cells | log2 fold change | -2.09 |
| CCCC[N+]1=c2cc3c4cc2[O][Mn-2]1(=[C]=O)(=[C]=O)(=[C]=O)[n+]1ccc(cc1)C(=O)NCCNC(=O)c1cc[n+](cc1)[Mn-2](=[C]=O)(=[C]=O)(=[C]=O)([O]3)[N+]=4CCCC | HEK293 | MTT | 50 µM, 48 h, photolysed compound | – | viability reduction | 47% |
| COC1CN([C@H]2CC[C@H]([C@@]3(C)Oc4c(Cl)cc(C(=O)NCc5c(SC)cc(C)[nH]c5=O)c(C)c4O3)CC2)C1 | J82 | cell growth or viability, ATP luminescence | 6 days | – | GI50 | > 10 µM |
| O=CCNCCOn1c(=O)n(OCCNCCO)c(=O)n(OCCNCCOn2c(=O)n(OCCNCCO)c(=O)n(OCCNCCO)c2=O)c1=O | A549 | cell growth or viability, MTT | 100 µg/mL, 48 h | – | viability | 26.8% |
| O=C(C[Se]C(=O)c1ccc2ccccc2c1)Nc1cccc(C(F)(F)F)c1 | NCI60 ovarian subpanel | total growth inhibition, inhibitor | five-dose | – | mean TGI | 3.63 µM |
| Cc1ncsc1-c1ccc(C(C)NC(=O)C2CC(O)CN2C(=O)C(NC(=O)CCCCCCCCCCN2CCCC(Nc3ncc(Cl)c(Nc4ccccc4S(=O)(=O)C(C)C)n3)C2)C(C)(C)C)cc1 (stereo not shown) | 22Rv1 | RNA-seq, measured: TMEM100 mRNA | concentration not given | baseline: DMSO | log2 fold change | -2.7 |
| COC1=C2CC(C)CC(OC)C(O)C(C)C=C(C)C(OC(N)=O)C(OC)C=CC=C(C)C(=O)NC(=CC1=O)C2=O (stereo not shown) | Rh30 | ChIP-seq, measured: H3K36me3 peak | concentration not given, GON7 intron chr14:93664800-93696999 | baseline: untreated control | log fold change | -0.502 |
| CC1(C)C[C@@H](Nc2cccc(-c3sc(C(=O)O)c(OCC(=O)O)c3Cl)c2)CCN1S(=O)(=O)Cc1cccc(NC(=O)CN2CCC(c3ccc4c(c3)oc(=O)n4C3CCC(=O)NC3=O)CC2)c1 (stereo partly shown) | B16-F10 | HTRF, measured: phospho-STAT1 Tyr701 | 0.014 µM, with: IFN-γ | baseline: DMSO | fold change | 1.09 and 1.1 and 1.15 and 1.11 |
| Cc1cc(Cl)cc(-c2ccnc3cc(CN4C(=O)C5C(C4=O)C5(C)C)sc23)c1C[C@@H]1CNCCO1 (stereo partly shown) | CHP-212 parental (wild-type USP7) | annexin V-PI flow cytometry | 1 µM, 48 h | – | apoptotic cells (early plus late) | 37.8% and 45.6% and 44.5% and 62.4% and 54.5% and 50% |
| Cc1ccc(-n2cc(CSc3nc4ccccc4n3Cc3cn(-c4ccc(C)cc4)nn3)nn2)cc1 | Caco-2 | MTT | 125 ppm | – | cytotoxicity | 87.7% |
| Cc1ccc([N+](=O)[O-])cc1S(=O)(=O)N(C)/N=C/c1cnc2ccc(Br)cn12 | HuT78 | – | 200 nM | – | PI-stained cells | 29.5% |
| CCN(CC)CC(=O)Nc1cccc(-n2cc(-c3ccc4ccc(-c5cn(-c6cccc(NC(=O)CN(CC)CC)c6)nn5)cc4c3)nn2)c1 | RCC4 | PCR angiogenesis array, measured: TGFBR1 | 5 x IC50, 2 h, normoxia | baseline: untreated | fold regulation | 1.29 fold |
| COC(=O)c1cc(NC2=NC(=O)C(=Cc3ccc(N(C)C)cc3)S2)ccc1OC(C)=O | MCF7 | measured: MCM6 mRNA | 0.81 µM (IC50), 24 h | baseline: DMSO | fold change | 0.419 |

| Structure (SMILES) | cell line | test | setting | how to read | measurement | result |
| --- | --- | --- | --- | --- | --- | --- |
| Cc1[nH]c(=S)[nH]c(=O)c1/N=N/c1nnc(S)s1 | Vero | cell viability, MTT | 10.0 µg/mL | – | inhibition | 21.6 ± 0.399% |
| CN1CCCNC(=O)c2cccc(c2)C(=O)NCCCN(C)CCCNc2cccc3c2C(=O)c2cccc(c2C3=O)NCCC1 | SAS | RNA-seq, measured: JRK mRNA | 1 µM, 6 h | baseline: untreated cells | log2 fold change | -0.953 |
| Cc1nc(NCCOCCOCCNc2ncc(C(=O)NC3=NN(c4ccc(Cl)c(Cl)c4)CC3)c(C)n2)ncc1C(=O)NC1=NN(c2ccc(Cl)c(Cl)c2)CC1 | EM-2 | cell growth or viability, ATP luminescence | 72 h | – | EC50 | 0.035 µM |
| O=C(C[Se]C(=O)C12CC3CC(CC(C3)C1)C2)Nc1cccc(C(F)(F)F)c1 | NCI60 non-small-cell lung subpanel | cell growth | 10 µM, 48 h, one-dose | – | mean growth percent | -57.9% |
| COc1ccccc1-c1ccncc1C(=O)Nc1nnc(OCc2ccc(Cl)cc2)s1 | MDA-MB-231 (BRCA1 wild-type) | colony formation | 0.75 µM | baseline: untreated control | colony survival | 91.8% |
| CC(C)c1ccc(N(C)c2ccc3c(c2)OCC[C@H]3CNc2cnccc2C(=O)O)cc1 | RERF-LC-MS | cell viability, CellTiter-Glo | 7 days | – | IC50 | 65.9 nM |
| CO[C@@H]1[C@@H](OC(N)=O)[C@@H](O)[C@H](Oc2ccc3c(O)c(NC(=O)c4ccc(O)c(CC=C(C)C)c4)c(=O)oc3c2C)OC1(C)C | HCT-116 BRCA2 wild-type | – | 300 µM, replicate A | baseline: untreated | colony survival | 65.1% |
| COc1ccc2c(c1)c(CC(=O)[Se]CC(=O)Nc1cccc(C(F)(F)F)c1)c(C)n2C(=O)c1ccc(Cl)cc1 | NCI60 ovarian subpanel | cell growth | 10 µM, 48 h, one-dose | – | mean growth percent | -86% |
| CCN(C(=O)c1cc(F)ccc1Oc1nncnc1N1CCC2(C1)CN([C@H](CCCN(C)CCOC)C(C)C)C2)C(C)C | IMR-90 | cell growth or viability | 7 days | – | GI50 | > 10 µM |
| CN(C)c1ccc(-n2cc(COC(=O)[C@]3(C)C=C(C(=O)OC(C)(C)C)C(=O)CC3)nn2)cc1 | HeLa | quantitative western blot | concentration not given, 4 (unit not given), with: EGF | – | pERK/ERK ratio | 0.2 |
| CCOc1cncc(-c2ccc(NC(=O)C3(c4ccnc(NS(=O)(=O)C5CC5)n4)CCOCC3)nc2)n1 | MEG-01 | cell proliferation, CellTiter-Glo | 72 h | – | IC50 | 1270 nM |
| O=C(C[Se]C(=O)c1cc2ccccc2o1)Nc1cccc(C(F)(F)F)c1 | NCI60 non-small-cell lung subpanel | cell growth | 10 µM, 48 h, one-dose | – | mean growth percent | -87.4% |
| Cn1ncc(-c2ccc3c(=O)[nH]nc(CN)c3c2)c1-c1c(F)c(Cl)cc(OC2CC2)c1C#N | SNU668 | cell viability, CellTiter-Glo | 120 h | – | IC50 | 140 nM |
| CC(=O)Oc1ccccc1C(=O)[Se]CC(=O)Nc1cccc(C(F)(F)F)c1 | NCI60 ovarian subpanel | cell growth | 10 µM, 48 h, one-dose | – | mean growth percent | -25.5% |
| C1=[N+]2CCCC[N+]3=Cc4ccc5[n]4[Au-]23[n]2c1ccc2-c1nc2ccccc2nc1-5.F[P-](F)(F)(F)(F)F | SF-295 | NCI60 five-dose screen | – | – | TGI | 4.07 -log M |

A few entries again:
| Structure (SMILES) | cell line | test | setting | how to read | measurement | result |
| --- | --- | --- | --- | --- | --- | --- |
| CCN(CC)CC(=O)Nc1cccc(-n2cc(-c3ccc4ccc(-c5cn(-c6cccc(NC(=O)CN(CC)CC)c6)nn5)cc4c3)nn2)c1 | RCC4 | PCR angiogenesis array, measured: TGFBR1 | 5 x IC50, 2 h, normoxia | baseline: untreated | fold regulation | 1.29 fold |
| COC(=O)c1cc(NC2=NC(=O)C(=Cc3ccc(N(C)C)cc3)S2)ccc1OC(C)=O | MCF7 | measured: MCM6 mRNA | 0.81 µM (IC50), 24 h | baseline: DMSO | fold change | 0.419 |
| Cc1[nH]c(=S)[nH]c(=O)c1/N=N/c1nnc(S)s1 | Vero | cell viability, MTT | 10.0 µg/mL | – | inhibition | 21.6 ± 0.399% |
| CN1CCCNC(=O)c2cccc(c2)C(=O)NCCCN(C)CCCNc2cccc3c2C(=O)c2cccc(c2C3=O)NCCC1 | SAS | RNA-seq, measured: JRK mRNA | 1 µM, 6 h | baseline: untreated cells | log2 fold change | -0.953 |
